Results gathered from unrelated publications.
Compare with care: the assays were run in different laboratories. ± gives the spread as reported.
Technique: steady-state kinetics
B1: protein F222A (Planktothrix agardhii, UniProt F5B6Z0); chain MIVNVIQKDRLKEQKLQFIRNHQQAFDVEPIYPLPLFEDFVTSIEGDCSLEASCKIESDKLIASRFLLFFEDKTQEWQKYLHQSLTFFGLVENRVGVKINYSLLQQFLGSSFDFSKVTVLSAGIDLRNNLAESSLKMHIRIKDYPEKLDKAFALSDGAADGNYLKDFVNLIGFDFYFNGKSEIEIYAEVQEDDFFKPEINNLVWQHFPKTALQPLKASSLFATGLSKANNNPVLYYHLKNRQDLTNYFKLNDTAQRVHSFYQHQDILPYMWVGTAQKELEKTRIENIRLYYYKSFKMESN
B2: PRXC1A (Armoracia rusticana, UniProt P00433); chain QLTPTFYDNSCPNVSNIVRDTIVNELRSDPRIAASILRLHFHDCFVNGCDASILLDNTTSFRTEKDAFGNANSARGFPVIDRMKAAVESACPRTVSCADLLTIAAQQSVTLAGGPSWRVPLGRRDSLQAFLDLANANLPAPFFTLPQLKDSFRNVGLNRSSDLVALSGGHTFGKNQCRFIMDRLYNFSNTGLPDPTLNTTYLQTLRGLCPLNGNLSALVDFDLRTPTIFDNKYYVNLEEQKGLIQSDQELFSSPNATDTIPLVRSFANSTQTFFNAFVEAMDRMGNITPLTGTQGQIRLNCRVVNSNS
B3: SULT2A1 (Homo sapiens, UniProt Q06520); chain MSDDFLWFEGIAFPTMGFRSETLRKVRDEFVIRDEDVIILTYPKSGTNWLAEILCLMHSKGDAKWIQSVPIWERSPWVESEIGYTALSETESPRLFSSHLPIQLFPKSFFSSKAKVIYLMRNPRDVLVSGYFFWKNMKFIKKPKSWEEYFEWFCQGTVLYGSWFDHIHGWMPMREEKNFLLLSYEELKQDTGRTIEKICQFLGKTLEPEELNLILKNSSFQSMKENKMSNYSLLSVDYVVDKAQLLRKGVSGDWKNHFTVAQAEDFDKLFQEKMADLPRELFPWE
B4: protein Y93W (Thermus thermophilus, UniProt Q5SKR5); chain MSAPKPFVIGIAGGTASGKTTLAQALARTLGERVALLPMDHYYKDLGHLPLEERLRVNYDHPDAFDLALYLEHAQALLRGLPVEMPVYDFRAWTRSPRRTPVRPAPVVILEGILVLYPKELRDLMDLKVFVDADADERFIRRLKRDVLERGRSLEGVVAQYLEQVKPMHLHFVEPTKRYADVIVPRGGQNPVALEMLAAKALARLARMGAA
B5: Mj-MAT W387F/Y72W (Methanocaldococcus jannaschii, UniProt Q58605); chain MRNIIVKKLDVEPIEERPTEIVERKGLGHPDSICDGIAESVSRALCKMYMEKFGTILHHNTDQVELVGGHAWPKFGGGVMVSPIYILLSGRATMEILDKEKNEVIKLPVGTTAVKAAKEYLKKVLRNVDVDKDVIIDCRIGQGSMDLVDVFERQKNEVPLANDTSFGVGYAPLSTTERLVLETERFLNSDELKNEIPAVGEDIKVMGLREGKKITLTIAMAVVDRYVKNIEEYKEVIEKVRKKVEDLAKKIADGYEVEIHINTADDYERESVYLTVTGTSAEMGDDGSVGRGNRVNGLITPFRPMSMEAASGKNPVNHVGKIYNILANLIANDIAKLEGVKECYVRILSQIGKPINEPKALDIEIITEDSYDIKDIEPKAKEIANKFLDNIMEVQKMIVEGKVTTF
B6: LigI D246A (Sphingobium sp. SYK-6, UniProt O87170); chain TNDERILSWNETPSKPRYTPPPGAIDAHCHVFGPMAQFPFSPKAKYLPRDAGPDMLFALRDHLGFARNVIVQASCHGTDNAATLDAIARAQGKARGIAVVDPAIDEAELAALHEGGMRGIRFNFLKRLVDDAPKDKFLEVAGRLPAGWHVVIYFEADILEELRPFMDAIPVPIVIDHMGRPDVRQGPDGADMKAFRRLLDSREDIWFKATCPDRLDPAGPPWDDFARSVAPLVADYADRVIWGTAWPHPNMQDAIPDDGLVVDMIPRIAPTPELQHKMLVTNPMRLYWSEEM
B7: protein (Shewanella denitrificans, UniProt Q12KT8); chain MIHKLADVQSQNIGDNTKVWQFCVILAGAVIGRNCNICANSLIENDVVIGDNVTIKSGVQIWDGIHIQDDVFIGPNVTFTNDKQPRSKIYPDEYLKTIVKKGASIGANSTILPGILIGENAMVGAGAVITKNVPDNAIVIGNPGRITGYVEANTGVIMPSNNFELKLQMSKVKGVSLHKFHLVNDLRGNLSVGEFEKDIPFTPKRYFTVFGVPNKEVRGEHAHKECKQFLICVSGNCSVLVDDGENREEYVLDSIDKGIYLPPMTWGVQYKYSKDAVLLVFASHYYDSDDYIRDYSTFKQMRQN
B8: LYS1 C205S/D319A (Saccharomyces cerevisiae, UniProt P38998); chain MAAVTLHLRAETKPLEARAALTPTTVKKLIAKGFKIYVEDSPQSTFNINEYRQAGAIIVPAGSWKTAPRDRIIIGLKEMPETDTFPLVHEHIQFAHCYKDQAGWQNVLMRFIKGHGTLYDLEFLENDQGRRVAAFGFYAGFAGAALGVRDWAFKQTHSDDEDLPAVSPYPNEKALVKDVTKDYKEALATGARKPTVLIIGALGRSGSGAIDLLHKVGIPDANILKWDIKETSRGGPFDEIPQADIFINCIYLSKPIAPFTNMEKLNNPNRRLRTVVDVSADTTNPHNPIPIYTVATVFNKPTVLVPTTAGPKLSVISIAHLPSLLPREASEFFSHDLLPSLELLPQRKTAPVWVRAKKLFDRHCARVKRSSRL
B9: BKGD (Homo sapiens, UniProt Q9H0W9); chain MACAEFSFHVPSLEELAGVMQKGLKDNFADVQVSVVDCPDLTKEPFTFPVKGICGKTRIAEVGGVPYLLPLVNQKKVYDLNKIAKEIKLPGAFILGAGAGPFQTLGFNSEFMPVIQTESEHKPPVNGSYFAHVNPADGGCLLEKYSEKCHDFQCALLANLFASEGQPGKVIEVKAKRRTGPLNFVTCMRETLEKHYGNKPIGMGGTFIIQKGKVKSHIMPAEFSSCPLNSDEEVNKWLHFYEMKAPLVCLPVFVSRDPGFDLRLEHTHFFSRHGEGGHYHYDTTPDIVEYLGYFLPAEFLYRIDQPKETHSIGRD
B10: enzyme (Thermobifida fusca, UniProt Q47RA9); chain MIMIMASKSSPHDLPDVSGLSIAVLGGTGDQGRGLARRFAMAGHEVILGSRSAERAQAVAAELGEGLPVRGMDNAGAAEAGDVVIVAVPWDGHRALLESLKDVLAGKIVVDCVNPLGFDKRGAYALPVEEGSAAEQAAAILPDSRVVAAFHHVSAVLLLDPEVEKVDLDVLVLGDDREATDVVRALAARIPGVRGVYGGRLRNAHQVEAFTANLISINRRYKAHAGIRITDI
Sequence of UniProt P14780 (whole entry, looked up): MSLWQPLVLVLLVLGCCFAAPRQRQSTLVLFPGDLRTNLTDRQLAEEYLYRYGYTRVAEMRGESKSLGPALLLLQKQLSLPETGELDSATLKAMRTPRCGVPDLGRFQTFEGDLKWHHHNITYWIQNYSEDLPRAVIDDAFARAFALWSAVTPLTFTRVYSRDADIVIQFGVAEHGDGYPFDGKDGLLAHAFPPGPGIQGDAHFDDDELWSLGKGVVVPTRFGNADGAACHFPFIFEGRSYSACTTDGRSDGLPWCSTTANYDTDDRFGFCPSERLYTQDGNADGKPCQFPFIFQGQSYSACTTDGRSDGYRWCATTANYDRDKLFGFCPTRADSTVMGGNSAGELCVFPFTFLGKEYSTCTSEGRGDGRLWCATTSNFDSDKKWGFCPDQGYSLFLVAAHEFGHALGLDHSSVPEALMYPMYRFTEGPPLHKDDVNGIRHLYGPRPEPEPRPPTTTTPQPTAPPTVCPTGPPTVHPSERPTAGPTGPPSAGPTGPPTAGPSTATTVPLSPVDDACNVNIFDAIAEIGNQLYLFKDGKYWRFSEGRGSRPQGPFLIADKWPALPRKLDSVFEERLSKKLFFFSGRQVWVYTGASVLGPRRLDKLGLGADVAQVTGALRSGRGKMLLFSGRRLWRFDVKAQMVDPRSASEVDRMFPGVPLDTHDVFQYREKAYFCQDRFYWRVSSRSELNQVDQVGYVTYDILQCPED
Sequence of UniProt Q29437 (whole entry, looked up): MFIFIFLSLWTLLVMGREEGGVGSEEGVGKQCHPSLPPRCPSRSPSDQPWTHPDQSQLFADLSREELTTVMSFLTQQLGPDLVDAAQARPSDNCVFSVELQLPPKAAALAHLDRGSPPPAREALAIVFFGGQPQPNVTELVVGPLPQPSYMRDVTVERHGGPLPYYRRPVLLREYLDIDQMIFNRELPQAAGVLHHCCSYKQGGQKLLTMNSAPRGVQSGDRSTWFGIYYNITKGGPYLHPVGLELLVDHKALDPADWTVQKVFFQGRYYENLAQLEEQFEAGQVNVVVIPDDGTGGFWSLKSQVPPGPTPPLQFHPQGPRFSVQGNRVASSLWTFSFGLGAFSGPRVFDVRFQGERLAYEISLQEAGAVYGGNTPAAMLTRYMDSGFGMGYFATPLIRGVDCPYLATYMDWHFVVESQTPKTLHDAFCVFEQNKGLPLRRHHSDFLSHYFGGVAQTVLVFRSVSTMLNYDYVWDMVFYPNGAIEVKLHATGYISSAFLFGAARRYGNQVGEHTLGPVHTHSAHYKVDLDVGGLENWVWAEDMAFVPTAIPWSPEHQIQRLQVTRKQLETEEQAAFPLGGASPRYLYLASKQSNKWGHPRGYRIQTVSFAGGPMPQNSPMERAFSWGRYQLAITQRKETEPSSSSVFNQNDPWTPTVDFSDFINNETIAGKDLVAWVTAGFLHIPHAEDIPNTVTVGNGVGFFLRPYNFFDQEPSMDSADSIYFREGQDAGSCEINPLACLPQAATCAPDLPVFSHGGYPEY
Sequence of UniProt Q9LTH3 (whole entry, looked up): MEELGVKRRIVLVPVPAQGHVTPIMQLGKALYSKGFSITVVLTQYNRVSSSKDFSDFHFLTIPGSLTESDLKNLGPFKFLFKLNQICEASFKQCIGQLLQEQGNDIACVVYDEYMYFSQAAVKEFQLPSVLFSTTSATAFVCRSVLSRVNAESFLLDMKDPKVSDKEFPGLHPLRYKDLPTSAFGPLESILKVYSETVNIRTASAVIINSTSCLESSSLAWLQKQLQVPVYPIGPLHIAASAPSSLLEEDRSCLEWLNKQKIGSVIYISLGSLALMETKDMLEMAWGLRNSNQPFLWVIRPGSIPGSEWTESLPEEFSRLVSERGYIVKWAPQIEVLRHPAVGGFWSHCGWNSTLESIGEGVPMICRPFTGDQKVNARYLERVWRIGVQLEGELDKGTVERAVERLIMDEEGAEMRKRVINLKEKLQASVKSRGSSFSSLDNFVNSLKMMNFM
Sequence of UniProt P19337 (whole entry, looked up): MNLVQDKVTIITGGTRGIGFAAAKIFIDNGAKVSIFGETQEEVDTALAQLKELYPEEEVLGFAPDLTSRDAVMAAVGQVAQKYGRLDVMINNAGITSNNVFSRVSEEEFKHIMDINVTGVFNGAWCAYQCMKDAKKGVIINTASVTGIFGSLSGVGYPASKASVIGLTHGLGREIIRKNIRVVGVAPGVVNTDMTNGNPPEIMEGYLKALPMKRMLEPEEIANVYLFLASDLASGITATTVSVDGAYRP
Sequence of UniProt Q48796 (whole entry, looked up): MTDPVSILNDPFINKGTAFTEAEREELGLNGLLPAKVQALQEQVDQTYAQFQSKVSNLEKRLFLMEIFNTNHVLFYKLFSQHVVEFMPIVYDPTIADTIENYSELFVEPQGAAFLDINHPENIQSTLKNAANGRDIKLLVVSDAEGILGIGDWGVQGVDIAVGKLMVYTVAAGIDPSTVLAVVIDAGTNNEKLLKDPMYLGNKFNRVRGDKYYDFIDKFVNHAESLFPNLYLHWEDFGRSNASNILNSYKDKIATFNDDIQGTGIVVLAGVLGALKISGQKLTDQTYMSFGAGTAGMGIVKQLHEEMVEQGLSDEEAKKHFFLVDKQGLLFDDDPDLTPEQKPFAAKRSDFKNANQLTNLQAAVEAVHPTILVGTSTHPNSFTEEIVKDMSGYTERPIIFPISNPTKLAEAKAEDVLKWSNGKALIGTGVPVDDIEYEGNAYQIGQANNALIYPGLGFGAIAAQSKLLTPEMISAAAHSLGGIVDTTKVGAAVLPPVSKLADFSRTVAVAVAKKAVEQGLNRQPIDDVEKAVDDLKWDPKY

Substance	substrate	pH	temperature	setting	added	kcat
MMP9 (Homo sapiens, UniProt P14780)	CC(=O)NCC(=O)N1CCC[C@H]1C(=O)N[C@@H](CC(C)C)C(=O)NCC(=O)N[C@@H](CC(C)C)C(=O)N[C@@H](CO)C(=O)N[C@@H](CC(C)C)C(=O)NCC(=O)N[C@@H](CCCCN)C(N)=O	–	–	–	–	46.7 s⁻¹
B1 (protein F222A)	CC(C)=CCOP(=O)(O)OP(=O)(O)O	–	–	–	tri-Tyr peptide acceptor	0.0423 ± 0.003 s⁻¹
B2 (PRXC1A)	CCn1c(=NN=c2sc3cc(S(=O)(=O)O)ccc3n2CC)sc2cc(S(=O)(=O)O)ccc21	–	–	apparent	–	592 ± 18 s⁻¹
mleA (Oenococcus oeni, UniProt Q48796)	NC(=O)c1ccc[n+]([C@@H]2O[C@H](COP(=O)(O)OP(=O)(O)OC[C@H]3O[C@@H](n4cnc5c(N)ncnc54)[C@H](O)[C@@H]3O)[C@@H](O)[C@H]2O)c1	pH 6	45 °C	cofactor varied	–	227 ± 3.35 s⁻¹
B3 (SULT2A1)	C[C@]12CC[C@H](O)CC1=CC[C@@H]1[C@@H]2CC[C@]2(C)C(=O)CC[C@@H]12	pH 7.4	25 °C	–	–	0.7 s⁻¹
Plasma amine oxidase (Bos taurus, UniProt Q29437)	C[N+](C)(C)CCOc1ccc2cc(CN)ccc2c1	pH 7.2	30 °C	–	–	0.69 ± 0.01 s⁻¹
B4 (protein Y93W)	Nc1ccn([C@@H]2O[C@H](CO)[C@@H](O)[C@H]2O)c(=O)n1	pH 7.2	25 °C	KCl 100 mM	ATP 100–200 µM	0.4 ± 0.1 s⁻¹
B5 (Mj-MAT W387F/Y72W)	CSCC[C@H](N)C(=O)O	–	55 °C	–	ATP 2.5 mM, methionine 0.05-1 mM	1.62 ± 0.15 s⁻¹
B6 (LigI D246A)	O=C(O)c1cc(C(=O)O)oc(=O)c1	pH 8.25	30 °C	–	–	0.0013 ± 0.0001 s⁻¹
B7 (protein)	Cc1cn([C@H]2C[C@H](O)[C@@H](COP(=O)(O)OP(=O)(O)O[C@H]3O[C@H](C)[C@H](O)[C@H](N)[C@H]3O)O2)c(=O)[nH]c1=O	pH 8.5	–	–	acetyl-CoA 2 mM	4.4 ± 0.3 s⁻¹
bga (Niallia circulans, UniProt E5RWQ2)	O=[N+]([O-])c1ccccc1O[C@@H]1O[C@H](CO)[C@H](O)[C@H](O)[C@H]1O	pH 6	40 °C	low-substrate phase, biphasic	–	56.3 ± 11.9 s⁻¹
protein (Strongylocentrotus purpuratus, UniProt A0A7M7RGC6)	CC(C)(COP(=O)(O)OP(=O)(O)OC[C@H]1O[C@@H](n2cnc3c(N)ncnc32)[C@H](O)[C@@H]1OP(=O)(O)O)[C@@H](O)C(=O)NCCC(=O)NCCSC(=O)CC(=O)O	–	–	without acetyl-CoA	malonyl-CoA	0.00567 s⁻¹
B8 (LYS1 C205S/D319A)	NCCCC[C@H](N)C(=O)O	pH 7.2	25 °C	–	NADH and α-Kg	35 ± 5 s⁻¹
B9 (BKGD)	O=C(O)[C@@H](O)C(=O)[C@H](O)[C@@H](O)CO	–	37 °C	–	–	4.27 ± 0.304 s⁻¹
enzyme (Arabidopsis thaliana, UniProt Q9LTH3)	O=c1ccn([C@@H]2O[C@H](CO[P@@](=O)(O)O[P@@](=O)(O)O[C@H]3O[C@H](CO)[C@@H](O)[C@H](O)[C@H]3O)[C@@H](O)[C@H]2O)c(=O)[nH]1	pH 7.5	25 °C	–	–	0.00832 s⁻¹
BaiA2 (Clostridium scindens, UniProt P19337)	NC(=O)c1ccc[n+]([C@@H]2O[C@H](COP(=O)(O)OP(=O)(O)OC[C@H]3O[C@@H](n4cnc5c(N)ncnc54)[C@H](O)[C@@H]3O)[C@@H](O)[C@H]2O)c1	pH 8.7	37 °C	cofactor from expression host, cofactor varied	–	0.0883 s⁻¹
B10 (enzyme)	NC(=O)c1ccc[n+](CCO)c1	pH 8	25 °C	–	–	0.0233 ± 0.001 s⁻¹

Excerpt of the above:
Substance	substrate	pH	temperature	setting	added	kcat
B2 (PRXC1A)	CCn1c(=NN=c2sc3cc(S(=O)(=O)O)ccc3n2CC)sc2cc(S(=O)(=O)O)ccc21	–	–	apparent	–	592 ± 18 s⁻¹
mleA (Oenococcus oeni, UniProt Q48796)	NC(=O)c1ccc[n+]([C@@H]2O[C@H](COP(=O)(O)OP(=O)(O)OC[C@H]3O[C@@H](n4cnc5c(N)ncnc54)[C@H](O)[C@@H]3O)[C@@H](O)[C@H]2O)c1	pH 6	45 °C	cofactor varied	–	227 ± 3.35 s⁻¹
